Measurements pooled from the literature.
Every numbered part comes from another study and shows a few of its results, in no order.
Chain of UniProt Q92985 (whole entry, unmodified, looked up): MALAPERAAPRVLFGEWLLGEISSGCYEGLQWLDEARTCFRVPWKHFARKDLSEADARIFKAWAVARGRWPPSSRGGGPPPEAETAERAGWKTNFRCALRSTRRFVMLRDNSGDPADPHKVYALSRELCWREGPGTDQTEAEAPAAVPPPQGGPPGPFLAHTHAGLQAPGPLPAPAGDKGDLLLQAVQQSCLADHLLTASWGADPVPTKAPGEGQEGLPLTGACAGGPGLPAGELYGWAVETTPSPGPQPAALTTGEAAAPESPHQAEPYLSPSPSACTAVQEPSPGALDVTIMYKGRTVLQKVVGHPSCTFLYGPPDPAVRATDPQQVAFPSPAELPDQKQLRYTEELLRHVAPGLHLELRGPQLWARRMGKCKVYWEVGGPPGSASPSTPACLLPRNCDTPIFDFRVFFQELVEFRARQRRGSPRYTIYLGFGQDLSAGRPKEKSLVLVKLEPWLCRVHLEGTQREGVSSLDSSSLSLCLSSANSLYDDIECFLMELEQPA
Chain of UniProt Q8WYB5 (whole entry, looked up): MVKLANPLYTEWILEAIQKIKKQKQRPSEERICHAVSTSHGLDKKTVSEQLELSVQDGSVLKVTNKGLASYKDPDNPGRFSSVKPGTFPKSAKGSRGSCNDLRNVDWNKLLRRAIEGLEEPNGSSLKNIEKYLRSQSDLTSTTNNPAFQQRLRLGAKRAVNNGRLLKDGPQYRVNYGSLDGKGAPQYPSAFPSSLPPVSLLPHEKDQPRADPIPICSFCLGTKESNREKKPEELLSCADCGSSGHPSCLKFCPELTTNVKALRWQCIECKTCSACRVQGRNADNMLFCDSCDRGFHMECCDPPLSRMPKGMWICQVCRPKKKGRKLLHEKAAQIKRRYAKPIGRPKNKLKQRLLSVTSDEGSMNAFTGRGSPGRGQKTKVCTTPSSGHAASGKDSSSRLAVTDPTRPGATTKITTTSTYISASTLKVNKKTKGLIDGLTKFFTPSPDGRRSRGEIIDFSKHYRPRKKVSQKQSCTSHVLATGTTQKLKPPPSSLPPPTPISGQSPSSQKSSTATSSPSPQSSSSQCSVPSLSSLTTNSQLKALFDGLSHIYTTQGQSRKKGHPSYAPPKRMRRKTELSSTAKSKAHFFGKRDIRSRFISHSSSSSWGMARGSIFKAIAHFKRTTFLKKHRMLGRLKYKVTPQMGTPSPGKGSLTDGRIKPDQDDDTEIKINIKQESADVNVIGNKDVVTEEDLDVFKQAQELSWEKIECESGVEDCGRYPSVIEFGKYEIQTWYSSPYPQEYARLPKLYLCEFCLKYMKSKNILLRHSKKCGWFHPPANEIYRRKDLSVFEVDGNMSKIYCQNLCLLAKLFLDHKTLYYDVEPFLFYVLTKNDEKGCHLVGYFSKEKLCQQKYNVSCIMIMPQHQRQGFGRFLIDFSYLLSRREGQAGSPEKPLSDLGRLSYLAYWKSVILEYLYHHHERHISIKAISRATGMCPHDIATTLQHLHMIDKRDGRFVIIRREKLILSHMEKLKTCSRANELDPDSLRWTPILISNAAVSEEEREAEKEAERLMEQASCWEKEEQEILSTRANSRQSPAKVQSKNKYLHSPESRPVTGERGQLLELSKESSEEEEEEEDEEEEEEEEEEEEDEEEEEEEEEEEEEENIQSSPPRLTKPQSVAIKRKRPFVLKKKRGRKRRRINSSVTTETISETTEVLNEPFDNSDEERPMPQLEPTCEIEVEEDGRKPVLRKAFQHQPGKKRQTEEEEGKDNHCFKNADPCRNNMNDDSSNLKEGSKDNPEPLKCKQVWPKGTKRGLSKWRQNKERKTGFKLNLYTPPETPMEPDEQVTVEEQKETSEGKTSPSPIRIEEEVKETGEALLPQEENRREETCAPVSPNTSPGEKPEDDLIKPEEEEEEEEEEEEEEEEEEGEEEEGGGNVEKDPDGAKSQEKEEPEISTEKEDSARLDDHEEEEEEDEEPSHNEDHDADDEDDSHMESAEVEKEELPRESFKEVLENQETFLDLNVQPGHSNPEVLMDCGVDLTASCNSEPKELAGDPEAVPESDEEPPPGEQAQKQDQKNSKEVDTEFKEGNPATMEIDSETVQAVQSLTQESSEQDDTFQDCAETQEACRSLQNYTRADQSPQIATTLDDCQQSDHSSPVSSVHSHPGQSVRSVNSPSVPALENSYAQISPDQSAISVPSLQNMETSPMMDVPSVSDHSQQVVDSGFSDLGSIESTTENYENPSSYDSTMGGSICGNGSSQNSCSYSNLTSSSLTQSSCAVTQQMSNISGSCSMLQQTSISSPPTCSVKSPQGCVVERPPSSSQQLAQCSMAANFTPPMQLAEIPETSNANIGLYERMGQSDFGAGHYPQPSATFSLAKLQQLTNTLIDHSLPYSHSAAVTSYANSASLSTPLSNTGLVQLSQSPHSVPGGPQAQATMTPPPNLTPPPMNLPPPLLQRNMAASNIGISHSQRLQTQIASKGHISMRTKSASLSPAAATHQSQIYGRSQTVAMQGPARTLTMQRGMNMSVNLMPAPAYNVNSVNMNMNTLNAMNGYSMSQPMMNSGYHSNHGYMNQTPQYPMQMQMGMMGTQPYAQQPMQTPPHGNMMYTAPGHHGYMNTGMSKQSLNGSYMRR

Sample 1
Target: Sal-like protein 4, full length isoform A (SALL4, Homo sapiens, UniProt Q9UJQ4, residues 1-1053)
Chain of UniProt Q9UJQ4 (whole entry, looked up): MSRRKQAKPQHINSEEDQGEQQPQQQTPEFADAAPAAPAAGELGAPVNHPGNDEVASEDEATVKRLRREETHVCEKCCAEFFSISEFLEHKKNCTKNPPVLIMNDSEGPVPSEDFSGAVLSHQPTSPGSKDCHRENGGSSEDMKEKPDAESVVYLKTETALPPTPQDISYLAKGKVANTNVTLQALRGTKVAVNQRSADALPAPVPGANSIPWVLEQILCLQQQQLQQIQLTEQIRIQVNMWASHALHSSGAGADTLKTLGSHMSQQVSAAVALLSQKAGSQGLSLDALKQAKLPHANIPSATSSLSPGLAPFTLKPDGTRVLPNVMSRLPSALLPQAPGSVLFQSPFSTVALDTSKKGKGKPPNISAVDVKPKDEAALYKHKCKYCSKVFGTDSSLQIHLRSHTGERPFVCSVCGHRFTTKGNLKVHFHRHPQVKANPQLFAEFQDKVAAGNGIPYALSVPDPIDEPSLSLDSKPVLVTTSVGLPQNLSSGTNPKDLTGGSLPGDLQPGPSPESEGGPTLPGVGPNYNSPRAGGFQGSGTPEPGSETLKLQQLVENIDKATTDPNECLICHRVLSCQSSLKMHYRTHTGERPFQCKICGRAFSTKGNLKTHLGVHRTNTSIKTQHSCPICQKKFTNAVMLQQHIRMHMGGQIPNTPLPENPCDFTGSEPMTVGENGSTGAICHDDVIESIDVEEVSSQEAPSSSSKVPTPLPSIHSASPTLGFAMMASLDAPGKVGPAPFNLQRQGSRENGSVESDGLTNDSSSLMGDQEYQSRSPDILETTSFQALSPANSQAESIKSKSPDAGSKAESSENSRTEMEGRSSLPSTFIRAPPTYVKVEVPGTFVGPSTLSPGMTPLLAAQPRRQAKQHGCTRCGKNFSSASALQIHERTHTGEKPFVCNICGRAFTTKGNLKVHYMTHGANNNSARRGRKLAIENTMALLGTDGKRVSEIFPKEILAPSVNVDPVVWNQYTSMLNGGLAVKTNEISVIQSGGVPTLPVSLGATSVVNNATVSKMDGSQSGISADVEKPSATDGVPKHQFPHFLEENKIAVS
Technique: universal PBM
Form: double-stranded DNA, one strand shown
Medium: in vitro
Tested at: 600 nM
Notes: 8-mer, flanks averaged, mean of replicates
Direction: higher = stronger binding
With `ACGAACTG` the E-score was -0.0983.
The E-score of `AGTGCTAT` is reported as 0.142.
`ACAGCGGG` gave an E-score of -0.163.
The E-score of `CCGGCATC` is reported as -0.279.

Other studies, line by line
KAT6A winged helix 1, GST fusion: Histone acetyltransferase KAT6A, winged helix 1, GST fusion (KAT6A, Homo sapiens, UniProt Q92794, residues 1-85)
`AAGGCCGA` gave an E-score of 0.213 (KAT6A winged helix 1, GST fusion; protein binding microarray; double-stranded DNA, one strand shown, in vitro; not given, 8-mer, flanks averaged, mean of 2 arrays, mostly near background; reference: not given, higher = stronger binding).
For `GCCTAGCACGACGGACTGCTACTCCTGACGTGCTAGGTCTTGATTCGCTTGACGCTGCTG`, “fitted relative affinity” read 0.423 z-score (Interferon regulatory factor 7, full length, phosphomimetic (IRF7, Homo sapiens, UniProt Q92985, residues 1-503, S471D/S472D/S475D/S476D/S477D/S483D/S484D/S487D); protein-binding microarray; double-stranded DNA, one strand shown, in vitro; 2200 nM top, 60-bp whole probe, added: salmon DNA 0.4 mg/ml; reference: random background probes, higher = stronger binding).
`GGCCTGCGCAGGCC (dsDNA)` — result for binding: “binds” (KAT6B 1-100 (Homo sapiens, UniProt Q8WYB5); EMSA; double-stranded DNA, one strand shown).
`GCCTAGCACTTAGATATCGGGTGTCGATTAGTGCTAGTCTTGATTCGCTTGACGCTGCTG` — result for “fitted relative affinity”: 0.397 z-score (Interferon regulatory factor 5, full length, phosphomimetic (IRF5, Homo sapiens, UniProt Q13568-2, residues 1-514, S451D/S453D/S456D/S462D); protein-binding microarray; double-stranded DNA, one strand shown, in vitro; 940 nM top, 60-bp whole probe, added: salmon DNA 0.4 mg/ml; reference: random background probes, higher = stronger binding).
`ATTCCTTC` has an E-score of -0.0541 (KAT6A winged helix 1, GST fusion; protein binding microarray; double-stranded DNA, one strand shown, in vitro; not given, 8-mer, flanks averaged, mean of 2 arrays, mostly near background; reference: not given, higher = stronger binding).
For `PhoQ, residues 284 288 289 292 302 303 ALAMYF`, the fold induction was 1.22 (PhoP, residues 12 14 15 18 19 DLLYY (Escherichia coli, UniProt P23836); Sort-seq, item: YFP reporter; E. coli; PhoQ-PhoP variant library, added: 10 µM Mg2+; reference: high Mg2+ state, higher = stronger signaling).

Repeated from above (other studies, line by line):
`AAGGCCGA` gave an E-score of 0.213 (KAT6A winged helix 1, GST fusion; protein binding microarray; double-stranded DNA, one strand shown, in vitro; not given, 8-mer, flanks averaged, mean of 2 arrays, mostly near background; reference: not given, higher = stronger binding).
